Assay results gathered from unrelated publications.
Compare with care: the assays were run in different laboratories. ± gives the spread as reported.
Sequence of UniProt Q9Y6E0 (whole entry, looked up): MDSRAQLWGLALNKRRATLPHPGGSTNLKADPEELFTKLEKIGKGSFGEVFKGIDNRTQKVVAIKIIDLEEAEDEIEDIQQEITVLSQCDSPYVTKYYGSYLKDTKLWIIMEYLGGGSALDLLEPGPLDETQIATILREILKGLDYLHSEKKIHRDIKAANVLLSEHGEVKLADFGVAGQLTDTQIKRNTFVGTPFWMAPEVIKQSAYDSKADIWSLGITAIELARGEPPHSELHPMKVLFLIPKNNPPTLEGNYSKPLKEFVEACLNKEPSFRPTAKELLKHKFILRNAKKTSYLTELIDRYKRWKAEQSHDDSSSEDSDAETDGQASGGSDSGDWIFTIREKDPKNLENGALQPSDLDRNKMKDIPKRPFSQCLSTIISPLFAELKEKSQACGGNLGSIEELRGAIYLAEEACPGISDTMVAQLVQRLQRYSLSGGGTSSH
Sequence of UniProt Q9Y5N1 (whole entry, looked up): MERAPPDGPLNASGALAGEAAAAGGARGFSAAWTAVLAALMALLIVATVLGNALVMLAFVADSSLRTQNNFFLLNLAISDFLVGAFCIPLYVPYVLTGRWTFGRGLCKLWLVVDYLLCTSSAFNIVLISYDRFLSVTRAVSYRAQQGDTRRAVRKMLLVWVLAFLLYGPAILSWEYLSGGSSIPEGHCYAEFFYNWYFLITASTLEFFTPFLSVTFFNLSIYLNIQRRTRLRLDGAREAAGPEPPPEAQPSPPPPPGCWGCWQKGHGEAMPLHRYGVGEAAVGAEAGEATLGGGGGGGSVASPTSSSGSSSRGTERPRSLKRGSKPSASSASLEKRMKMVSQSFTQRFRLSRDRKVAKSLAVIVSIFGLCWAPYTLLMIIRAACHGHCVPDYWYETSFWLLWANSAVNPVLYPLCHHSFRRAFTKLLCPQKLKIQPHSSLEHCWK
Sequence of UniProt Q9NZ01 (whole entry, looked up): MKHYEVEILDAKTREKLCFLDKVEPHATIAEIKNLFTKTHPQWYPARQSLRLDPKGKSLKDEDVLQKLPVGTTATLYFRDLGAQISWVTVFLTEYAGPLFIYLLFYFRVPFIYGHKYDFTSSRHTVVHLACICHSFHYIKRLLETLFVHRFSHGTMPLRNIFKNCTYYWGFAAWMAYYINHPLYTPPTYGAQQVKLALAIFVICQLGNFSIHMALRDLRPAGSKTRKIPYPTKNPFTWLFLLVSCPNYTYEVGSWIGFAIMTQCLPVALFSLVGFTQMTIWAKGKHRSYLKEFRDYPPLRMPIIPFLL

COc1cc(Nc2ncc(F)c(Nc3ccc4c(n3)NC(=O)C(C)(C)O4)n2)cc(OC)c1OC  IC50 (Na+/K+-ATPase (pig); ATPase activity, inhibitor; heart): > 10 µM
CC[C@H](C)[C@@H]1NC(=O)[C@@H]2CCCN2C(=O)[C@H](CC(C)C)NC(=O)[C@H](CC(C)C)NC(=O)CNC(=O)[C@@H](NC(=O)[C@@H](NC(=O)[C@H](CC(=O)O)NC(=O)CNC(=O)[C@@H](NC(=O)[C@H](C)NC(=O)CNC(=O)[C@H](CCCCN)NC(=O)[C@H](CC(C)C)NC(=O)[C@H](CC(C)C)NC(=O)[C@H](CCCCN)NC(=O)CNC(=O)[C@@H](NC(=O)[C@@H](N)CC(C)C)C(C)C)C(C)C)C(C)C)CSSC[C@@H](C(=O)O)NC1=O  log2 fold change (RNA-seq, measured: Themis2; mouse, traumatic brain injury model, frontal cortex and hippocampus; dose not given; baseline: TBI alone): -2.89
C[C@]1(CO)Cc2ncn(-c3ccc(C#N)c(Cl)c3)c2C(=O)O1  subjects with drug-related TEAEs (investigator-assessed; human; 3 mg multiple doses, fasted): 22.2%
CO[C@H]1C[C@@H]2CC[C@@H](C)[C@@](O)(O2)C(=O)C(=O)N2CCCC[C@H]2C(=O)O[C@H]([C@H](C)C[C@@H]2CC[C@@H](OC(=O)NCCOCCOCCOCCOCCOCCOCCOCCOCCC(=O)N3CCc4cc(Cn5nc(-c6ccc7oc(N)nc7c6)c6c(N)ncnc65)ccc4C3)[C@H](OC)C2)C[C@@H](O)[C@H](C)/C=C(\C)[C@@H](O)[C@@H](OC)C(=O)[C@H](C)C[C@H](C)/C=C/C=C/C=C/1C  Mucositis AE leading to dose reduction (patients with advanced solid tumours; intravenous, 1.6 mg/3 mg weekly, any grade): 0%
CC[C@H](C)[C@H](NC(=O)[C@H](Cc1ccccc1)NC(=O)[C@H](CCC(=O)O)NC(=O)[C@H](CCCNC(=N)N)NC(=O)[C@H](C)NC(=O)[C@H](C)NC(=O)[C@H](CCC(N)=O)NC(=O)[C@H](CCC(=O)O)NC(=O)[C@H](CCC(=O)O)NC(=O)[C@H](CC(C)C)NC(=O)[C@H](Cc1ccc(O)cc1)NC(=O)[C@H](CO)NC(=O)[C@H](CO)NC(=O)[C@@H](NC(=O)[C@H](CC(=O)O)NC(=O)[C@H](CO)NC(=O)[C@@H](NC(=O)[C@H](Cc1ccccc1)NC(=O)[C@@H](NC(=O)CNC(=O)[C@H](CCC(=O)O)NC(=O)[C@H](C)NC(=O)CCc1c[nH]cn1)[C@@H](C)O)[C@@H](C)O)C(C)C)C(=O)N[C@@H](C)C(=O)N[C@@H](Cc1c[nH]c2ccccc12)C(=O)N[C@@H](CC(C)C)C(=O)N[C@H](C(=O)N[C@@H](CCCNC(=N)N)C(=O)NCC(=O)N[C@@H](CCCNC(=N)N)C(=O)N[C@@H](CCCCNC(=O)COCCOCCNC(=O)COCCOCCNC(=O)CC[C@H](NC(=O)CCCCCCCCCCCCCCCCC(=O)O)C(=O)O)C(=O)NCC(=O)NCC(=O)N[C@@H](CO)C(=O)N[C@@H](CCCCNc1c(NCCCCCN(O)C(=O)CCC(=O)NCCCCCN(O)C(=O)CCC(=O)NCCCCCN(O)C(C)=O)c(=O)c1=O)C(=O)O)C(C)C [zirconium-89 labelled]  tissue uptake (ex vivo gamma counting; rat, colon content; subcutaneous, 3 nmol/kg, 168 h, together with: [89Zr]-labelled peptide): 0.05 %ID/g
CN1CCN(c2cc(-c3ccncc3)c(-c3ccc4ccccc4c3)nn2)CC1  inhibition (HRH3 (Homo sapiens, UniProt Q9Y5N1); antagonist, FLIPR; 10 µM): 75.2%
CC(=O)OC[C@H]1O[C@@H](Oc2cc(O)cc3cc4oc(C)cc(=O)c4c(O)c23)[C@H](O)[C@@H](O)[C@@H]1O  cell viability (HK-2 co-cultured with HepaRG; MTT; 133.33 µM, 48 h; baseline: untreated control): 91.5 ± 9.75%
CCc1ccc(CC/C=C/c2ccc3c(c2)C(=O)CC3)cc1  AST serum activity (Sprague-Dawley rat, male; oral, 30 mg/kg/day, 14 days): 115 U/L
COc1cc2c(Oc3ccc4[nH]c(C)cc4c3F)ccnc2cc1OCC1(N)CC1  grade 1 or 2 Diarrhoea (paediatric recurrent refractory sarcoma; 8 mg): 0%
[Cl-].[Cl-].[Pt+2].[Ru+2].c1ccc(-c2nc3cc4ccccc4cc3nc2-c2ccccn2)nc1.c1cnc2c(c1)ccc1cccnc12.c1cnc2c(c1)ccc1cccnc12  survival rate (Danio rerio; embryos; 60 µM, 96 h): 70 ± 2%
COc1ccc(N2C(=O)N(c3c(C)cccc3Cl)Cc3cnc(Nc4ccc(C5CCN(C)CC5)cc4OC)nc32)nc1  inhibition (STK24 (Homo sapiens, UniProt Q9Y6E0); kinase activity, inhibitor; 0.5 µM, MST3): 27%
O=c1ccc2ccccc2o1  CHOP induction, chance of response (NHEK; keratinocyte growth medium; concentration not given, 24 h, ER stress panel): 20.8%
Cc1cc2c(c(O)c1O)C(=O)c1c(O)cc(O)cc1C2=O  cell viability (HK-2 co-cultured with HepaRG; MTT; 33.33 µM, 48 h; baseline: untreated control): 83.5 ± 6.02%
Cc1cc(C(=O)NC(C)(C)COc2cccc3c2C(N)=NS(=O)(=O)N3)cc(C)n1  revertant ratio (Escherichia coli; Ames test, initial; WP2 uvrA; 150 µg/plate; baseline: solvent control): 1.2
COc1ccc2c(c1OC)C(=O)c1c(cc(C)c(O)c1OC)C2=O  cell viability (HK-2 co-cultured with HepaRG; MTT; 66.67 µM, 24 h; baseline: untreated control): 79.6 ± 9.01%
C[C@H]1CN(c2n[nH]c3nc(N[C@H]4CC[C@H](NS(=O)(=O)CCC(F)(F)F)CC4)ncc23)CCO1  remaining binding (Very-long-chain enoyl-CoA reductase (Homo sapiens, UniProt Q9NZ01); Kinobeads competition, measured: GPSN2; 0.032 µM, unit not given; baseline: vehicle): 1.06
O=C1c2ccccc2C(=O)c2ccccc21  cell viability (HepaRG co-cultured with HK-2; MTT; 133.33 µM, 24 h; baseline: untreated control): 47.5 ± 2.53%
CC(=O)N1CCC(C(=O)N2CCN3C(=O)c4cc(-c5ccccc5)ccc4NC(=O)C3C2)CC1 (stereo not drawn)  revertants per plate (Salmonella typhimurium; TA100; 15.8 µg/plate, without S9): 88

Repeated from above:
C[C@]1(CO)Cc2ncn(-c3ccc(C#N)c(Cl)c3)c2C(=O)O1  subjects with drug-related TEAEs (investigator-assessed; human; 3 mg multiple doses, fasted): 22.2%
CO[C@H]1C[C@@H]2CC[C@@H](C)[C@@](O)(O2)C(=O)C(=O)N2CCCC[C@H]2C(=O)O[C@H]([C@H](C)C[C@@H]2CC[C@@H](OC(=O)NCCOCCOCCOCCOCCOCCOCCOCCOCCC(=O)N3CCc4cc(Cn5nc(-c6ccc7oc(N)nc7c6)c6c(N)ncnc65)ccc4C3)[C@H](OC)C2)C[C@@H](O)[C@H](C)/C=C(\C)[C@@H](O)[C@@H](OC)C(=O)[C@H](C)C[C@H](C)/C=C/C=C/C=C/1C  Mucositis AE leading to dose reduction (patients with advanced solid tumours; intravenous, 1.6 mg/3 mg weekly, any grade): 0%
CC[C@H](C)[C@H](NC(=O)[C@H](Cc1ccccc1)NC(=O)[C@H](CCC(=O)O)NC(=O)[C@H](CCCNC(=N)N)NC(=O)[C@H](C)NC(=O)[C@H](C)NC(=O)[C@H](CCC(N)=O)NC(=O)[C@H](CCC(=O)O)NC(=O)[C@H](CCC(=O)O)NC(=O)[C@H](CC(C)C)NC(=O)[C@H](Cc1ccc(O)cc1)NC(=O)[C@H](CO)NC(=O)[C@H](CO)NC(=O)[C@@H](NC(=O)[C@H](CC(=O)O)NC(=O)[C@H](CO)NC(=O)[C@@H](NC(=O)[C@H](Cc1ccccc1)NC(=O)[C@@H](NC(=O)CNC(=O)[C@H](CCC(=O)O)NC(=O)[C@H](C)NC(=O)CCc1c[nH]cn1)[C@@H](C)O)[C@@H](C)O)C(C)C)C(=O)N[C@@H](C)C(=O)N[C@@H](Cc1c[nH]c2ccccc12)C(=O)N[C@@H](CC(C)C)C(=O)N[C@H](C(=O)N[C@@H](CCCNC(=N)N)C(=O)NCC(=O)N[C@@H](CCCNC(=N)N)C(=O)N[C@@H](CCCCNC(=O)COCCOCCNC(=O)COCCOCCNC(=O)CC[C@H](NC(=O)CCCCCCCCCCCCCCCCC(=O)O)C(=O)O)C(=O)NCC(=O)NCC(=O)N[C@@H](CO)C(=O)N[C@@H](CCCCNc1c(NCCCCCN(O)C(=O)CCC(=O)NCCCCCN(O)C(=O)CCC(=O)NCCCCCN(O)C(C)=O)c(=O)c1=O)C(=O)O)C(C)C [zirconium-89 labelled]  tissue uptake (ex vivo gamma counting; rat, colon content; subcutaneous, 3 nmol/kg, 168 h, together with: [89Zr]-labelled peptide): 0.05 %ID/g
